Results of several laboratories.
± marks the error that the study gave.

The peptide release of `C[C@@H](O)[C@H](NC(=O)[C@H](CCC(=O)O)NC(=O)[C@H](Cc1ccccc1)NC(=O)[C@H](Cc1c[nH]c2ccccc12)NC(=O)[C@H](CCCCN)NC(=O)[C@H](CCCCN)NC(=O)[C@H](CCCCN)NC(=S)Nc1ccc2c(c1)C(=O)OC21c2ccc(O)cc2Oc2cc(O)ccc21)C(=O)N[C@@H](Cc1c[nH]c2ccccc12)C(=O)N[C@@H](Cc1ccccc1)C(=O)N[C@H](C(=O)N[C@@H](CCC(=O)O)C(=O)N[C@@H](Cc1c[nH]c2ccccc12)C(=O)N1CCC[C@H]1C(=O)N[C@@H](CCCCN)C(=O)N[C@@H](CCCCN)C(=O)N[C@@H](CCCCN)C(=O)N[C@@H](CCCCN)C(=O)O)[C@@H](C)O` is reported as 36.7 µg (gelatin hydrogel 100 mg/mL; 56.6 µg loaded, 72 h, no cross-linker, added: PBS).
For `COc1ccnc(-c2cc(OC)ccn2)c1.O.[C-]#[O+].[C-]#[O+].[C-]#[O+].[Re+]`, the capacity factor was 7.2 (RP-HPLC C18 column, refers to: MeCN adduct; MeCN:water 40:60, 0.1% TFA; isocratic elution).
With `N#CC1(c2ccc3c(N)ncnn23)OC(COP(=O)(O)OP(=O)(O)OP(=O)(O)O)C(O)C1O` (stereo not drawn) the Cmax was 5250 nmol/kg (LC-MS/MS; CD-1 mouse, liver; oral, 100 mg/kg of remdesivir).
Under “subjects with treatment-emergent headache”, `CC[C@H](C)C(=O)N1CCC(NC(=O)Nc2ccc(OC(F)(F)F)c(F)c2)CC1` is recorded as 0% (healthy volunteers, both sexes; oral, 8 mg, fasted state).
`CC(C)[C@H](NC(=O)CNC(=O)[C@H](CCC(N)=O)NC(=O)[C@H](C)N)C(=O)O` — result for “subjects with any AE”: 25% (healthy male volunteers; intravenous, 45 mg/kg/h, 2 h, added: LPS 2 ng/kg).
For `CCCCCCCCCCCCCCCC(=O)N[C@@H](CCC(=O)NCCCC[C@H](NC(=O)[C@H](CC(=O)O)NC(=O)[C@H](CO)NC(=O)[C@@H](NC(=O)[C@H](Cc1ccccc1)NC(=O)[C@@H](NC(=O)CNC(=O)[C@H](CCC(N)=O)NC(=O)[C@H](C)NC(=O)[C@@H](Cc1ccc(O)cc1)NC(C)=O)[C@@H](C)O)[C@@H](C)O)C(=O)N[C@@H](CO)C(=O)N[C@@H](CCCCN)C(=O)N[C@@H](Cc1ccc(O)cc1)C(=O)N[C@@H](CC(C)C)C(=O)N[C@@H](CC(=O)O)C(=O)N[C@@H](CCC(=O)O)C(=O)N[C@@H](CCCNC(=N)N)C(=O)N[C@@H](C)C(=O)N[C@@H](C)C(=O)N[C@@H](CCC(N)=O)C(=O)N[C@@H](CC(=O)O)C(=O)N[C@@H](Cc1ccccc1)C(=O)N[C@H](C(=O)N[C@@H](CCC(N)=O)C(=O)N[C@@H](Cc1c[nH]c2ccccc12)C(=O)N[C@@H](CC(C)C)C(=O)N[C@@H](CC(C)C)C(=O)N[C@@H](CCC(=O)O)C(=O)NCC(=O)NCC(=O)N1CCC[C@H]1C(=O)N[C@@H](CO)C(=O)N[C@@H](CO)C(=O)NCC(=O)N[C@@H](C)C(=O)N1CCC[C@H]1C(=O)N1CCC[C@H]1C(=O)N1CCC[C@H]1C(=O)N[C@@H](CO)C(N)=O)C(C)C)C(=O)O`, “heart rate increase” read 25 bpm (Holter monitoring; human; subcutaneous, 150 µg single dose, first 48 h; reference: baseline).
`COc1cc(NC(=O)C(=O)c2c(C)n(Cc3ccc(Cl)cc3)c3ccc(C)cc23)ccn1` has a Vz of 26 L/kg (female cynomolgus monkey, plasma; intravenous, 1 mg/kg).
With `O=C(O)CCC(NP(=O)(O)OCCC[C@@H](NC(=O)CCC(NC(=O)CCCCCNC(=O)CCCCCNC(=O)c1ccc([18F])cc1)C(=O)O)C(=O)O)C(=O)O` (stereo partly drawn) the tumour/blood ratio was 11.2 ± 1.31 (radioactivity biodistribution; mouse, PC-3 xenograft, tumour, blood; 2 h).
`CC(C)(CCCC/C=C/CCCCCC(C)(C)C(=O)O)C(=O)O` gave a half-life of 27.4 h (beagle dog, plasma; oral, 5 mg/kg).
The CC50 of `O=CN(CCCc1cn(-c2ccc(CN3CCOCC3)cc2)nn1)CCNc1ccnc2cc(Cl)ccc12` is reported as over 100 µM (monkey cells).
For `CN(C)C(CNC(=O)Nc1cc(C(F)(F)F)ccc1N1CCOCC1)c1ccncc1` (stereo not drawn), the serum potassium was 9.1 mmol/L (mouse, serum; intraperitoneal, 360 mg/kg single dose).
For `CC[C@H](C)[C@H](NC(=O)[C@H](N)Cc1ccc(O)cc1)C(=O)N[C@H]1CSSC[C@@H](C(=O)N(C)[C@H](C(N)=O)[C@@H](C)CC)NC(=O)[C@H](CCCNC(=N)N)NC(=O)[C@H](Cc2c[nH]cn2)NC(=O)[C@H](C)NC(=O)CN(C)C(=O)[C@H](Cc2c[nH]c3ccccc23)NC(=O)[C@H](CC(=O)O)NC(=O)[C@H](CCC(N)=O)NC(=O)[C@H](Cc2cn(C)c3ccccc23)NC(=O)[C@H](C(C)C)NC1=O`, the plasma concentration was 5.2 µM (UPLC-MS; cynomolgus monkey, haemodialysis, plasma; intravenous, 2 mg/kg bolus plus 4 µg/kg/min infusion, first 6 h of 4-h haemodialysis).
The Vz of `O=c1cc(-c2ccccc2)oc2c(Br)c(O)c(O)c(O)c12` is reported as 696 ± 139 mL (C57BL/6 mouse, plasma; po, 250 mg/kg).
The tissue concentration of `C/C=C/C=C/C/C=C/CCCCCCCc1cccc(O)c1O` is reported as 7690 ± 1050 ng/g (female Kunming mice tumour-bearing, lungs; intravenous, 10 mg/kg, 4 h).
For `COC(=O)C[C@](O)(CCCC(C)(C)OC(C)=O)C(=O)O[C@@H]1C(OC)=C[C@]23CCCN2CCc2cc4c(cc2[C@H]13)OCO4`, the tissue concentration was 435 ng/mL (CD1 mouse, liver; subcutaneous, 1 mg/kg, 0.5 h).
With `CCN1CCCC1CNC(=O)c1cc(Br)cc(OC)c1O[11CH3]` (stereo not drawn) the K1 was 0.54 ± 0.1 mL/cm³/min (multiple-injection PET; rhesus monkey, brain, regional mean).
The tissue uptake of `O=C(c1ccc(F)cc1)C1CCN(C2Cc3c(cccc3OCC[18F])CC2O)CC1` (single isomer, unassigned; (-)) is reported as 0.369 ± 0.02 %ID/g (Sprague-Dawley rat, male, bone; intravenous, dose not given, 30 min).
For `CC(C)[C@H](NC(=O)CNC(=O)[C@H](CCC(N)=O)NC(=O)[C@H](C)N)C(=O)O`, “definitely drug-related adverse events” read 0% (healthy human; intravenous, 10 mg/kg single dose; reference: subjects).
For `CC[C@H](C)CCCCC(=O)N[C@@H](CCN)C(=O)N[C@H](C(=O)N[C@@H](CCN)C(=O)N[C@H]1CCNC(=O)[C@H]([C@@H](C)O)NC(=O)[C@H](CCN)NC(=O)[C@H](CCN)NC(=O)[C@H](CC(C)C)NC(=O)[C@@H](Cc2ccccc2)NC(=O)[C@H](CCN)NC1=O)[C@@H](C)O`, the kidney concentration was 126000 ng/g (LC-MS/MS; male CD-1 mouse, kidney homogenate; subcutaneous, 17.2 mg/kg single dose, 4 h).
For `CC(C)C[C@H](NC(=O)[C@H](CCCCN)NC(=O)[C@H](CCC(=O)O)NC(=O)[C@H](C)NC(=O)[C@@H](NC(=O)[C@H](CCCCN)NC(=O)[C@H](CC(=O)O)NC(=O)[C@H](Cc1ccc(O)cc1)NC(=O)[C@H](Cc1ccccc1)NC(=O)[C@H](C)NC(=O)[C@H](CCCCN)NC(=O)[C@H](CC(C)C)NC(=O)[C@H](Cc1c[nH]c2ccccc12)NC(=O)[C@@H](N)CC(=O)O)C(C)C)C(=O)N[C@@H](CCCCN)C(=O)N[C@@H](CCC(=O)O)C(=O)N[C@@H](C)C(=O)N[C@@H](Cc1ccccc1)C(=O)N1CCC[C@H]1C(=O)N[C@@H](CC(=O)O)C(=O)N[C@@H](Cc1c[nH]c2ccccc12)C(=O)N[C@@H](C)C(=O)N[C@@H](CCCCN)C(=O)N[C@@H](C)C(=O)N[C@@H](C)C(=O)N[C@@H](Cc1ccc(O)cc1)C(=O)N[C@@H](CC(=O)O)C(=O)N[C@@H](CCCCN)C(=O)N[C@@H](C)C(=O)N[C@@H](C)C(=O)N[C@@H](CCC(=O)O)C(=O)N[C@@H](CCCCN)C(=O)N[C@@H](C)C(=O)N[C@@H](CCCCN)C(=O)N[C@@H](CCC(=O)O)C(=O)N[C@@H](C)C(=O)N[C@@H](C)C(=O)O`, the AUC(0-inf) was 11400 µg·h/mL (cynomolgus monkey female, plasma; intravenous infusion, 75 mg/kg, day 1, 30 min infusion).
`CCCCCCCCCCCCC(=O)O.O=C1CCCC2C3CCCN4CCCC(CN12)C34` (stereo not drawn): “standard enthalpy of aggregation” -0.511 kcal/mol (electrical conductivity; water; 313.15 K).
